Measurements from different studies.
Parts stem from different laboratories: compare values within a part only.
Chain of UniProt O15530 (whole entry, looked up): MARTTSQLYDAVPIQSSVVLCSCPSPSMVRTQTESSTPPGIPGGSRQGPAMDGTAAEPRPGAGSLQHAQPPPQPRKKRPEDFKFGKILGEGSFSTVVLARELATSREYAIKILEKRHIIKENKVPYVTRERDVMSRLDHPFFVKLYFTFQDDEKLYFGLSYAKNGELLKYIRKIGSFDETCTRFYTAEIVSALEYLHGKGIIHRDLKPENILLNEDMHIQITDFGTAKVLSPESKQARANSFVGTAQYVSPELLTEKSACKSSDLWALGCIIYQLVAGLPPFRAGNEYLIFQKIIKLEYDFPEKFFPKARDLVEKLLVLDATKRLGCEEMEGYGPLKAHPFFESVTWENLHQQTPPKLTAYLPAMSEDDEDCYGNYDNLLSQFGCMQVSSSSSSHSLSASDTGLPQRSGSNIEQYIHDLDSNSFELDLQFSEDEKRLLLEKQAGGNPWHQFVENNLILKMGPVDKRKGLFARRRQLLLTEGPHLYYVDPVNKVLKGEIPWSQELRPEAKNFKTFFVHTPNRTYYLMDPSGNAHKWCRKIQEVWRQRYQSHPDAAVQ
Chain of UniProt Q16644 (whole entry, looked up): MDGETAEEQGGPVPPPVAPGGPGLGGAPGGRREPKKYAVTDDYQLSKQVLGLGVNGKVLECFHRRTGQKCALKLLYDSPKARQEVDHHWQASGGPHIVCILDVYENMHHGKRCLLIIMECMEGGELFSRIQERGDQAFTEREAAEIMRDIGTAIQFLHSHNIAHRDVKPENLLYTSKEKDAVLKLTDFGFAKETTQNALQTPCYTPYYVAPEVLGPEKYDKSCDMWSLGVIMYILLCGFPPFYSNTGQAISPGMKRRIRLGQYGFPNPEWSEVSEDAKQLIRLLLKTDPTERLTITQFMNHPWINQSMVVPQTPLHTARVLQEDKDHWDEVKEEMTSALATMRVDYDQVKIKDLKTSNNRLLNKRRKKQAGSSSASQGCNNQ
Chain of UniProt Q9H2G2 (whole entry, looked up): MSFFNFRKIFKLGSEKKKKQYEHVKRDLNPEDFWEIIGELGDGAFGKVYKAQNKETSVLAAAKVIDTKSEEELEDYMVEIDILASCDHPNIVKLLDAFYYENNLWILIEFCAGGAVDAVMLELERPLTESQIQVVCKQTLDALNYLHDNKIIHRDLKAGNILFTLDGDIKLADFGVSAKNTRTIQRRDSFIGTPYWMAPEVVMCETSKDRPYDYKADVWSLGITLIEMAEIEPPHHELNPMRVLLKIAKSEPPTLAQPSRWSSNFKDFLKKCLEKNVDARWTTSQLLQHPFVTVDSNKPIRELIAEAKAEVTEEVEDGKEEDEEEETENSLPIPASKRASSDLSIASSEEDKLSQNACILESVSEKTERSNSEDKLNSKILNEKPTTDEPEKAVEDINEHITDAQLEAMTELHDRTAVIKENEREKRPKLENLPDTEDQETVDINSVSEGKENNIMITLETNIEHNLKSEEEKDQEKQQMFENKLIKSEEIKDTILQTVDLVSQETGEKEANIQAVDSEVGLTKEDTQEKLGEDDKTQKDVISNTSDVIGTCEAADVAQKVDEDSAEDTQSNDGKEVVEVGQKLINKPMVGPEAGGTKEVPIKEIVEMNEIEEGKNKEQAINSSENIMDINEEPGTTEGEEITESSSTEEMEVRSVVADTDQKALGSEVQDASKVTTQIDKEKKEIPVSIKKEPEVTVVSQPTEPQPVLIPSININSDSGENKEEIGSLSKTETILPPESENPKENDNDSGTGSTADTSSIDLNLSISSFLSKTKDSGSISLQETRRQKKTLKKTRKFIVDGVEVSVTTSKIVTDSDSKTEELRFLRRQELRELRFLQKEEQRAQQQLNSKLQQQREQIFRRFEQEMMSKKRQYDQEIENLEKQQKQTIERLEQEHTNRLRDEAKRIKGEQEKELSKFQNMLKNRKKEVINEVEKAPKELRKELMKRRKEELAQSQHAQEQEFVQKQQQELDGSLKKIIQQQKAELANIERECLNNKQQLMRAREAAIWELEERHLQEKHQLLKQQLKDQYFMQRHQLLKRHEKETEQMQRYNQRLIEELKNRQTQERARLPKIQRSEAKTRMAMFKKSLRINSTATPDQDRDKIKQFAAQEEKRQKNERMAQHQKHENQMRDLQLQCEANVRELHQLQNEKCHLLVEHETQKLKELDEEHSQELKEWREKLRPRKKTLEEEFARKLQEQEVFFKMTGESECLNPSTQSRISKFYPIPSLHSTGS
Chain of UniProt Q9BYP7 (whole entry, looked up): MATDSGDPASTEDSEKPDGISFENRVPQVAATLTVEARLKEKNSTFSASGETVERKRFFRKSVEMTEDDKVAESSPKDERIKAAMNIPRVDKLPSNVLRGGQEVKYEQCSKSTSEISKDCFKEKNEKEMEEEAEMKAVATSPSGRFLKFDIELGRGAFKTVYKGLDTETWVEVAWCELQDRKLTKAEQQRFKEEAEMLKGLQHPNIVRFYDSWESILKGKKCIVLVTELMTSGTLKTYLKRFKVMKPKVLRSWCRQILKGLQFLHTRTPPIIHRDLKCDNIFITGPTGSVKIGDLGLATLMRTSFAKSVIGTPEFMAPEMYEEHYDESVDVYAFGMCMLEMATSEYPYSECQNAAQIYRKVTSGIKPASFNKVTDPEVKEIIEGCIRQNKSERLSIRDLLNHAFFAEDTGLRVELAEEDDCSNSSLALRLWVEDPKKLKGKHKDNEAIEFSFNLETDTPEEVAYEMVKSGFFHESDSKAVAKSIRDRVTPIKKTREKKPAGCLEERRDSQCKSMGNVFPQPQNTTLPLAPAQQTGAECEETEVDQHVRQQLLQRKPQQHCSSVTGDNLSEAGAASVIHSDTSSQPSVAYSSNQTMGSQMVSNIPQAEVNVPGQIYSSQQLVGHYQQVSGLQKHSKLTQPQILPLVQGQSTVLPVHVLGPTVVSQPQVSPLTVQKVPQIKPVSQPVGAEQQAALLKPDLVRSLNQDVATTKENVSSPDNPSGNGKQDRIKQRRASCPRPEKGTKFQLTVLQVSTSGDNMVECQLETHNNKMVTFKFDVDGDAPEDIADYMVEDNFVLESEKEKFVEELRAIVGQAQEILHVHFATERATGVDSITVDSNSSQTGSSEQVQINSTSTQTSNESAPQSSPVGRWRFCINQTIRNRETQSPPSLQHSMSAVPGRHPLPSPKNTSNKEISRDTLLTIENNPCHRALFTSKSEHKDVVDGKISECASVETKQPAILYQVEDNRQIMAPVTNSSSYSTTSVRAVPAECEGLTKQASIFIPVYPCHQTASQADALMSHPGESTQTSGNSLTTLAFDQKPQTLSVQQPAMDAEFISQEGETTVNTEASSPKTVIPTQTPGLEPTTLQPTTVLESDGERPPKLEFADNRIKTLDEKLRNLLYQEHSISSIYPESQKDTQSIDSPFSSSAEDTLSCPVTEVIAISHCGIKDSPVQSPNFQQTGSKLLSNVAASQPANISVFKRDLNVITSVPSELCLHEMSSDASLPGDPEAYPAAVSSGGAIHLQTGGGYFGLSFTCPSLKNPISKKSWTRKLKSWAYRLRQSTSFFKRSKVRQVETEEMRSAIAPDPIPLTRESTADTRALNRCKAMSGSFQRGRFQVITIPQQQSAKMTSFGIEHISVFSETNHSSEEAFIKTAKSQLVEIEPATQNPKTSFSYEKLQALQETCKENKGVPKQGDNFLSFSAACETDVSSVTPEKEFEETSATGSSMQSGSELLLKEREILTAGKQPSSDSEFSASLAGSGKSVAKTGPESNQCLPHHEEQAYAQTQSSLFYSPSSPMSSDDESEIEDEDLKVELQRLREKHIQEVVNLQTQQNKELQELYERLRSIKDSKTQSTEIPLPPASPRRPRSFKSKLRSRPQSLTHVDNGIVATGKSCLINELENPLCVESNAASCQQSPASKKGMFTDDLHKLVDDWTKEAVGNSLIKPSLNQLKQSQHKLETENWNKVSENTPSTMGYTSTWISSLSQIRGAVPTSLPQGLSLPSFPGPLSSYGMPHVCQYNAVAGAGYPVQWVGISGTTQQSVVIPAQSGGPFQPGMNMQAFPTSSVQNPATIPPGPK
Chain of UniProt Q9H0K1 (whole entry, looked up): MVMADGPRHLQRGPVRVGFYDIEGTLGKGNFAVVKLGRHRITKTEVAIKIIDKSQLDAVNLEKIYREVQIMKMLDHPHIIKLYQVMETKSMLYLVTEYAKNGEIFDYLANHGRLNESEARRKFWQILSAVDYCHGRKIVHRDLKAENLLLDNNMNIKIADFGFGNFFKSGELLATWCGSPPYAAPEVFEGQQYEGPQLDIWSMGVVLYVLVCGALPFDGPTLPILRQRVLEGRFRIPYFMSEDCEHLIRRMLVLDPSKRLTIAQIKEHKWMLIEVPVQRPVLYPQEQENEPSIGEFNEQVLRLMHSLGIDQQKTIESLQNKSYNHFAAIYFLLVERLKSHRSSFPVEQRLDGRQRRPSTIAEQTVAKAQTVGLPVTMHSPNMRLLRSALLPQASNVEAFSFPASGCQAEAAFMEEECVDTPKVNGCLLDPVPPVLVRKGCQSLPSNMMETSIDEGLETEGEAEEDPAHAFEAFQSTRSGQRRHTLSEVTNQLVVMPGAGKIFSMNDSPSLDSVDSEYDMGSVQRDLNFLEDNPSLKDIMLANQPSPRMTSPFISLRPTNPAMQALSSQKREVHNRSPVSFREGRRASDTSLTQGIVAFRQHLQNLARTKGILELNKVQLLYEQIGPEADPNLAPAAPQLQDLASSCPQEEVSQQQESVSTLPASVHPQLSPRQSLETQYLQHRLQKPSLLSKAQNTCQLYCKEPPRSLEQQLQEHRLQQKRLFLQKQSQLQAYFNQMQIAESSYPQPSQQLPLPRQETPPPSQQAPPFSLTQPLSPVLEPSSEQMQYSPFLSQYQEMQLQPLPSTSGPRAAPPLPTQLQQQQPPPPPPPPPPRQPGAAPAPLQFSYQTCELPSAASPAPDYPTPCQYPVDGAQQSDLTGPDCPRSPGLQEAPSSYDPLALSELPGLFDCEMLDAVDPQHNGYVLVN

Set 1 — technique: protein-binding microarray; molecule type: double-stranded DNA, one strand shown; sample: in vitro; tested at: 2200 nM top; notes: 60-bp whole probe; together with: salmon DNA 0.4 mg/ml; baseline: random background probes; direction: higher = stronger binding; constant ends, left off below: GCCTAGCAC … GTCTTGATTCGCTTGACGCTGCTG
Target: Interferon regulatory factor 7, full length, phosphomimetic (IRF7, Homo sapiens, UniProt Q92985, residues 1-503, S471D/S472D/S475D/S476D/S477D/S483D/S484D/S487D)
Target sequence (chain): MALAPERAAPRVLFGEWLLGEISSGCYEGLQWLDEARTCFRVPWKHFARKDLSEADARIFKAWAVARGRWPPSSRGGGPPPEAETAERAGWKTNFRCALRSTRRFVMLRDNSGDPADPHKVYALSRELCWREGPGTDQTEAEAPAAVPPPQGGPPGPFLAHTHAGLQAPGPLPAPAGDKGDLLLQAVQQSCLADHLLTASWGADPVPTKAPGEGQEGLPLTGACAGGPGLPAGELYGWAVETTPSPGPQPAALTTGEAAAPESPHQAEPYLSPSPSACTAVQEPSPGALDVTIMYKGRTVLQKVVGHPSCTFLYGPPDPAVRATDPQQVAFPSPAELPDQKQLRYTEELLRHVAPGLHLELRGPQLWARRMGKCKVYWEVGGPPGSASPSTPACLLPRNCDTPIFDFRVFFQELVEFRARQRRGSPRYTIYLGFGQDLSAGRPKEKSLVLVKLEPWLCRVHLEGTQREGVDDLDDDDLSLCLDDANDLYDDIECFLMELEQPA
| Strand | fitted relative affinity [z-score] |
| --- | --- |
| TCTAGCCTCCATTTTTACCCGTGCTAG | 1.16 |
| GACGGTTTTGGGACTGGGGACGTGCTA | 0.574 |
| TTACGTATCCTTCTCCTTTAGTGCTAG | 2.86 |
| GATGGTCTCCTTATCCTGACGTGCTAG | 1.19 |
| CAGAAGTTCATGTTCAACCAGTGCTAG | 0.335 |
| TTAGGTATCGGACTGCGTTAGTGCTAG | 0.124 |
| GACGGACTGCTACTGCAGACGTGCTAG | -0.616 |
| TATTGTTTCCTCTTTCACTGGTGCTAG | 3.6 |

Set 2 — technique: RNA Bind-n-Seq; molecule type: RNA; sample: in vitro; tested at: 365 nM; baseline: no-protein control; direction: higher = stronger binding
Target: RNA binding protein fox-1 homolog 2, RRM domain, GST-SBP tag (RBFOX2, Homo sapiens, UniProt O43251-10, residues 100-194)
Notes: natural RNA segment, single round, ends assumed
Constant ends, left off below: GGGAGUUCUACAGUCCGACGAUC … UGGAAUUCUCGGGUGCCAA
Target sequence (chain): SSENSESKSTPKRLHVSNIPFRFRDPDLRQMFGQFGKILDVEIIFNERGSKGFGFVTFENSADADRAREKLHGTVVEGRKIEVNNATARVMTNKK
| Strand | RBNS enrichment (R) |
| --- | --- |
| GUUUGUGAAGGCAGCAGUUAAGGGCACAAAGACAGCCAUGGGGACAUUUAUGUAAAUAUGUUUAAUUGCCACACUGCAGCUGAACGGUGUGUAGUAUUUUCCCAGUCAGC | 0.643 |
| UUUUAAAGCGUAGCUGAACCGACUGAAACUAUUAUGGAGAUUACAAUAAAUAAUUGCAUUCAAUCUGGUUCCAUAGUCUCAAUUUUGGAAAACAUGAACAGAUUUUUUUC | 0.417 |
| GCGUGUAUCUCACUGUUUUCCGUAUUGGGAACAGAUGGUAUAGAUUUGCCAAGGCCUUUAUUUUAAAGUGUUCUUGGAAAAUCGUAUUUAAAUUUGCAAUUAUUCUAAUU | 0.327 |
| CUGUCACAGGAGGGAGUUGGGCUAGAUCAUCUUUAAGGUAGGUUCUAGCUUUGACAUCAUCUUGGGGGUUAGGCCAGAGGCUGGGAAGACUGGGUGGACUUUCUCAAUUG | 0.48 |
| CCCUGUCCCCCACCUGUGGUUCUGGCCUCUGAGGUUGGGGGACUACUUGUUUCCCACCCCAGGUUCCUCCAGGCCAAGUCAUGGGGUGAUGAGGAGUUGGGGCCCUGUCU | 0.21 |
| CCCUCUCUUGUUUCCUCUCCUCUUCUUAUGCCCCCUCCUGGGGAGGAGGCUACUGGAUGUAAGCUGUGCAGACCUGCUUCCCUCAGCAUUAAAUGUCUUCUCUUGAGCUG | 0.633 |
| GCUUGAGUCGGGGACAUGUUAACUUCGGAAAGAAGCCCCCGUCCCUGCCAUCCCAUAGAUUCUGAAGGGCUCCUCUCCUCCGGUCACGCUGACCAACUGCCAAGCUCGCU | 0.258 |
| UGACCUUUGAAACAAUUCCAGGGGCAUUCUCAAGUAUUUGAUACCUAGGGGUUUAGUAACUCAGACAAAUUAAUCCCUUUGUACUAAUUUUAUGAAACAGAGCUGGGGGU | 0.366 |

Set 3 — observed: cell-free assay; technique: competition with immobilised ligand; tested at: 0.1 µM
SMILES: CS(=O)(=O)N1CCCC(NC(=O)[C@H](CCC2CCCCC2)NC(=O)c2ccc(CNC(=O)c3cnc4ccccn34)cc2)C1 (stereo partly shown)
| target | remaining binding |
| --- | --- |
| SIK2 (Homo sapiens, UniProt Q9H0K1) | 100% |
| MET (Homo sapiens, UniProt P08581) | 62% |
| TEK (Homo sapiens, UniProt Q02763) | 92% |
| DDR1 (Homo sapiens, UniProt Q08345) | 0.1% |
| SRC (Homo sapiens, UniProt P12931) | 100% |
| SLK (Homo sapiens, UniProt Q9H2G2) | 99% |
| CSNK2A1 (Homo sapiens, UniProt P68400) | 100% |
| Tyrosine-protein kinase JAK3, JH1 (JAK3, Homo sapiens, UniProt P52333) | 69% |
| CSNK1G3 (Homo sapiens, UniProt Q9Y6M4) | 100% |
| FGFR2 (Homo sapiens, UniProt P21802) | 100% |
| FLT3 (Homo sapiens, UniProt P36888, K663Q) | 100% |
| WNK4 (Homo sapiens, UniProt Q96J92) | 80% |
| MUSK (Homo sapiens, UniProt O15146) | 91% |
| NEK5 (Homo sapiens, UniProt Q6P3R8) | 89% |

Set 4 — observed: enzyme activity; action: inhibitor; tested at: 0.5 µM; baseline: control
Compound: CN1CCN(c2ccc3nc(-c4c(N)c5c(F)cccc5[nH]c4=O)[nH]c3c2)CC1
| target | remaining activity |
| --- | --- |
| WNK3 (Homo sapiens, UniProt Q9BYP7) | 96.1% |
| MAPKAPK3 (Homo sapiens, UniProt Q16644) | 99.3% |
| EPHA4 (Homo sapiens, UniProt P54764) | 93.4% |
| RPS6KA5 (Homo sapiens, UniProt O75582) | 81.1% |
| PDPK1 (Homo sapiens, UniProt O15530) | 88% |
| HIPK4 (Homo sapiens, UniProt Q8NE63) | 96.3% |
| PRKACG (Homo sapiens, UniProt P22612) | 119% |

Excerpt of the above (set 2):
| Strand | RBNS enrichment (R) |
| --- | --- |
| GCGUGUAUCUCACUGUUUUCCGUAUUGGGAACAGAUGGUAUAGAUUUGCCAAGGCCUUUAUUUUAAAGUGUUCUUGGAAAAUCGUAUUUAAAUUUGCAAUUAUUCUAAUU | 0.327 |
| GCUUGAGUCGGGGACAUGUUAACUUCGGAAAGAAGCCCCCGUCCCUGCCAUCCCAUAGAUUCUGAAGGGCUCCUCUCCUCCGGUCACGCUGACCAACUGCCAAGCUCGCU | 0.258 |
| CCCUGUCCCCCACCUGUGGUUCUGGCCUCUGAGGUUGGGGGACUACUUGUUUCCCACCCCAGGUUCCUCCAGGCCAAGUCAUGGGGUGAUGAGGAGUUGGGGCCCUGUCU | 0.21 |
| UGACCUUUGAAACAAUUCCAGGGGCAUUCUCAAGUAUUUGAUACCUAGGGGUUUAGUAACUCAGACAAAUUAAUCCCUUUGUACUAAUUUUAUGAAACAGAGCUGGGGGU | 0.366 |
| UUUUAAAGCGUAGCUGAACCGACUGAAACUAUUAUGGAGAUUACAAUAAAUAAUUGCAUUCAAUCUGGUUCCAUAGUCUCAAUUUUGGAAAACAUGAACAGAUUUUUUUC | 0.417 |
| CCCUCUCUUGUUUCCUCUCCUCUUCUUAUGCCCCCUCCUGGGGAGGAGGCUACUGGAUGUAAGCUGUGCAGACCUGCUUCCCUCAGCAUUAAAUGUCUUCUCUUGAGCUG | 0.633 |
